Published values pooled from the literature.
Lines come from different studies, so protocols differ. “And” joins repeats or separate records; there may be more than shown. ± marks the error that the study gave. ≈ marks a conversion by molar mass, not a printed value.
PPARG: Peroxisome proliferator-activated receptor gamma (PPARG, Homo sapiens, UniProt P37231)

| SMILES | tested on | test | test system | setting | scale | quantity | result |
| --- | --- | --- | --- | --- | --- | --- | --- |
| Cc1ccc(-c2nc(N)c3c(Nc4ccc(F)cc4)n[nH]c3n2)cc1 | coxsackievirus B3 | viral cytopathic effect | HeLa | – | – | IC50 | 17000 nM |
| Cc1ncsc1-c1ccc(C(C)NC(=O)C2CC(O)CN2C(=O)C(NC(=O)CCCCCCCCCCN2CCCC(Nc3ncc(Cl)c(Nc4ccccc4S(=O)(=O)C(C)C)n3)C2)C(C)(C)C)cc1 (centres unmarked) | 22Rv1 | RNA-seq, measured: LNCRNA-ATB | – | concentration not given | baseline: DMSO | log2 fold change | -3.24 |
| Cc1cccc(-c2nc(N)c3c(Nc4ccc(F)cc4)n[nH]c3n2)c1 | rhinovirus B42 | viral cytopathic effect | HeLa | – | – | IC50 | 2030 nM |
| Cc1c(Cc2cccc(OC(C)(C)C(=O)O)c2)c2ccc(C(=O)N[C@@H](C)c3cccc(Br)c3)cc2n1C | PPARG | ligand displacement, TR-FRET | – | – | – | IC50 | 0.7 nM |
| Nc1ncc(-c2cc(-c3cnn(CC(F)(F)F)c3)ncc2F)nc1C(=O)NC1CNCC(F)C1 (centres unmarked) | EPHA2 | KINOMEscan | – | 1 µM | baseline: DMSO control | remaining binding | 95% |
| Cc1ncsc1-c1ccc(CNC(=O)[C@@H]2C[C@@H](O)CN2C(=O)[C@@H](NC(=O)CN2CCN(C3CN(CCNC(=O)C[C@@H]4N=C(c5ccc(Cl)cc5)c5c(sc(C)c5C)-n5c(C)nnc54)C3)CC2)C(C)(C)C)cc1 | Spodoptera frugiperda | degrader, targeted LC-MS, measured: BRD3 | Sf9 | 0.0001 µM | – | protein level | 117% and 138% and 94.3% and 103% |
| Cc1ccc(Nc2n[nH]c3nc(-c4ccc(F)cc4)nc(N)c23)cc1 | rhinovirus B42 | viral cytopathic effect | HeLa | – | – | IC50 | 920 nM |
| C=CC(=O)Nc1cccc(Cn2ncc3cnc(Nc4cnn(CCOC)c4)nc32)c1 | CLK4 human | binding, KINOMEscan | – | 100 nM | lower = stronger binding | percent of control | 100% |
| CC(C)C[C@H](NC(=O)[C@H](Cc1ccc(O)cc1)NC(=O)[C@@H](CCCNC(=N)N)NC(=O)[C@@H](CO)NC(=O)[C@H](Cc1ccccc1)NC(=O)[C@H](CC1CCCCC1)NC(=O)[C@H](CC(=O)O)NC(=O)CN1CCN(CC(=O)O)CCN(CC(=O)O)CCN(CC(=O)O)CC1)C(=O)N[C@@H](Cc1c[nH]c2ccccc12)C(=O)N[C@@H](CO)C(=O)O [copper-64 labelled] | – | – | human, thyroid | concentration not given, 24 h | – | activity concentration | 487 Bq/mL and 382 Bq/mL and 695 Bq/mL and 403 Bq/mL and 287 Bq/mL and 351 Bq/mL |
| CCCC[C@H](NC(=O)CCCCCCCNC(=O)CN1CCN(CC(=O)O)CCN(CC(=O)O)CC1)C(=O)N[C@H]1CC(=O)NCCCC[C@@H](C(N)=O)NC(=O)[C@H](Cc2c[nH]c3ccccc23)NC(=O)[C@H](CCCNC(=N)N)NC(=O)[C@@H](Cc2ccccc2)NC(=O)[C@H](Cc2c[nH]cn2)NC1=O [technetium-99m labelled] | – | – | C57 mouse, brain | intravenous, 0.037 MBq, 4 h | – | tissue uptake | 0.01 %ID/g |
| Cc1c(Cc2cccc(OC(C)C(=O)O)c2)c2ccc(C(=O)NC(C)c3ccc(C(C)C)cc3)cc2n1C (mixture of isomers) | PPARG | ligand displacement, TR-FRET | – | – | – | IC50 | 42 nM |
| Cc1c(C)c2cccnc2c2ncccc12.O=[N+]([O-])[O-].O=c1c(C=NN=C([S-])Nc2ccccc2)coc2ccccc12.[Cu+2] | supercoiled pUC19 DNA | oxidative DNA cleavage | – | concentration not given, superoxide dismutase 1 U, together with: ascorbic acid | – | supercoiled DNA remaining | 0% |
| COc1ccc(C(=O)CCc2cc(C(CCc3ccc(O)cc3OC)c3ccc(O)cc3)c(O)cc2OC)cc1 (racemic) | – | – | human blood | 3 µM, together with: A23187 | – | PGD2 level | 6 ± 6 pg/mL |
| CN1CCCNC(=O)c2cccc(c2)C(=O)NCCCN(C)CCCNc2cccc3c2C(=O)c2cccc(c2C3=O)NCCC1 | SAS | RNA-seq, measured: MT-ND6 mRNA | – | 1 µM, 6 h | baseline: untreated cells | log2 fold change | -1.96 |
| COc1cc(O)ccc1CCC(c1ccc(O)cc1)c1cc2c(c(C)c1O)OC(c1ccc(O)cc1)CC2 (mixture of isomers) | – | – | human blood | 30 µM, together with: A23187 | – | PGD2 level | 8 ± 6 pg/mL |
| CC(C)(C)NCC(SS(=O)(=O)O)c1ccccc1 (centres unmarked) | Schistosoma mansoni | perfusion day 52 | infected Swiss Webster mice | 600 mg/kg single dose, 1248 h, dosed day 7 post-infection | – | liver weight | 3.99 g |

| SMILES | tested on | test | test system | setting | scale | quantity | result |
| --- | --- | --- | --- | --- | --- | --- | --- |
| O=C1NC2(CC2)COc2ncc(F)cc2[C@H]2COCCN2c2ccn3ncc1c3n2 | Salmonella typhimurium | Ames test | TA102 | 50 µg/plate, 48 h, together with: without S9 | – | revertant colonies | 390 ± 11 revertants/plate |
| Nc1nc(-c2ccccc2)nc2[nH]nc(Nc3cc(F)ccc3F)c12 | coxsackievirus B3 | viral cytopathic effect | HeLa | – | – | IC50 | 150 nM |
| O=C(Nc1cnccc1-c1ccc([18F])cc1)c1ccnc(NC(=O)C2CC2)c1 | – | ex vivo gamma counting | FVB/NJ mice, both sexes, cortex | intravenous, 120 min, mean, P-gp inhibitor pretreatment, together with: tariquidar 15 mg/kg iv | – | SUV | 0.23 |
| CC(C)Oc1cc(Cl)ccc1CNc1cc(-c2ccccc2)nc2ncnn12 | GPR3 (Homo sapiens, UniProt P46089, I200W) | cAMP GloSensor | human cells | 100 nM | higher is more cAMP | cAMP luminescence | 41500 a.u. and 52700 a.u. and 38700 a.u. and 39200 a.u. |
| C=C(NC(=O)c1csc(-c2nc3c(cc2O)-c2nc(cs2)C(=O)NC(C(C)O)C(=O)NC(=C(C)OC)c2nc(cs2)C(=O)NC2c4nc(cs4)C(=O)NC(COC(=O)c4c5c6c(cccc6n4O)COC(=O)C(OC4CC(C)(O)C(N(C)C)C(C)O4)C2OC5)c2nc-3cs2)n1)C(N)=O (centres unmarked) | Staphylococcus aureus | broth microdilution | methicillin-susceptible isolates | – | – | MIC50 | 0.0156 µg/mL (≈ 0.0109 µM) |
| CC(C)C[C@H](NC(=O)[C@@H](CCCCNC(=O)[C@@H](Cc1ccccc1)NC(=O)CCCCCNC(=O)CN1CCN(CC(=O)O)CCN(CC(=O)O)CCN(CC(=O)O)CC1)NC(=O)[C@H](Cc1ccc(O)cc1)NC(=O)[C@H](CO)NC(=O)[C@H](Cc1c[nH]c2ccccc12)NC(=O)[C@H](Cc1c[nH]cn1)NC(=O)[C@@H]1CCC(=O)N1)C(=O)N[C@@H](CCCNC(=N)N)C(=O)N1CCC[C@H]1C(=O)NCC(N)=O [indium-111 labelled] | – | – | female athymic nude mice, stomach | intravenous, 0.037 MBq, 4 h | – | tissue uptake | 0.3 ± 0.28 %ID/g |
| CN1CCC[C@]1(C)/C=C/S(=O)(=O)NC(=O)Nc1c2c(cc3c1CCC3)CCC2 | – | – | human, whole blood ex vivo | 100 mg twice daily, day 14, 24 h, multiple ascending dose, together with: LPS and ATP | – | IL-18 inhibition | 93% |
| CCN(CC)CC#CCNc1ccnc2cc(Cl)ccc12 | Salmonella typhimurium | mini-Ames test | TA98 | 62.5 µg/well, without S9 | – | mean revertants | 6 revertants/well |
| Cc1nn(-c2cccc(N)c2)c(=O)c2cnc(Nc3ccc(N4CCNCC4)cc3)nc12 | PHKG2 (Homo sapiens, UniProt P15735) | kinase activity, inhibitor, SelectScreen kinase profiling | – | – | – | IC50 | 3650 nM |
| C=CC(=O)N1[C@@H](c2ccc3c(c2)OCO3)c2[nH]c3ccccc3c2C[C@H]1C(=O)N1CCN(C)CC1 | human cyclin E1 wild type-3xFLAG:CDK2 | co-IP with TMT proteomics, measured: DDX17 | – | concentration not given, Q92841 | baseline: wild type DMSO | relative co-enrichment | 86% |
| CC(=O)[O-].O.O.O.O.[Ni+2].[O-]c1ccc(Br)cc1C=NCCN1CCOCC1 | – | superoxide scavenging | – | 200 µM | – | inhibition | 52.5% |
| Cc1cccc2c1N(C(=O)n1ccnn1)CC2 | Arabidopsis thaliana | – | kai2 mutant | 3 µM, 72 h | – | germination rate | 73.4% |
| COc1ccc(Nc2n[nH]c3nc(-c4ccccc4)nc(N)c23)c(OC)c1 | coxsackievirus B3 | viral cytopathic effect | HeLa | – | – | IC50 | 66500 nM |
| COC1CN([C@H]2CC[C@H]([C@@]3(C)Oc4c(Cl)cc(C(=O)NCc5c(SC)cc(C)[nH]c5=O)c(C)c4O3)CC2)C1 | – | RNA-seq, measured: BTBD11 | human, whole blood | dose not given, 24 h | baseline: pretreatment baseline | log2 fold change | 1.1 |
| CNS(=O)(=O)Nc1nccc(Cc2c(C)c3ccc(Oc4ncccc4F)cc3oc2=O)c1F | HCC2935 | cell viability | – | 7 days | – | IC50 | 48.5 nM |
| Nc1nc(-c2ccccc2)nc2[nH]nc(Nc3c(F)cc(F)cc3F)c12 | coxsackievirus B3 | viral cytopathic effect | HeLa | – | – | IC50 | 11700 nM |

Repeated from above:
| SMILES | tested on | test | test system | setting | scale | quantity | result |
| --- | --- | --- | --- | --- | --- | --- | --- |
| Cc1ncsc1-c1ccc(C(C)NC(=O)C2CC(O)CN2C(=O)C(NC(=O)CCCCCCCCCCN2CCCC(Nc3ncc(Cl)c(Nc4ccccc4S(=O)(=O)C(C)C)n3)C2)C(C)(C)C)cc1 (centres unmarked) | 22Rv1 | RNA-seq, measured: LNCRNA-ATB | – | concentration not given | baseline: DMSO | log2 fold change | -3.24 |
| COc1cc(O)ccc1CCC(c1ccc(O)cc1)c1cc2c(c(C)c1O)OC(c1ccc(O)cc1)CC2 (mixture of isomers) | – | – | human blood | 30 µM, together with: A23187 | – | PGD2 level | 8 ± 6 pg/mL |
| CC(C)C[C@H](NC(=O)[C@@H](CCCCNC(=O)[C@@H](Cc1ccccc1)NC(=O)CCCCCNC(=O)CN1CCN(CC(=O)O)CCN(CC(=O)O)CCN(CC(=O)O)CC1)NC(=O)[C@H](Cc1ccc(O)cc1)NC(=O)[C@H](CO)NC(=O)[C@H](Cc1c[nH]c2ccccc12)NC(=O)[C@H](Cc1c[nH]cn1)NC(=O)[C@@H]1CCC(=O)N1)C(=O)N[C@@H](CCCNC(=N)N)C(=O)N1CCC[C@H]1C(=O)NCC(N)=O [indium-111 labelled] | – | – | female athymic nude mice, stomach | intravenous, 0.037 MBq, 4 h | – | tissue uptake | 0.3 ± 0.28 %ID/g |
| Nc1ncc(-c2cc(-c3cnn(CC(F)(F)F)c3)ncc2F)nc1C(=O)NC1CNCC(F)C1 (centres unmarked) | EPHA2 | KINOMEscan | – | 1 µM | baseline: DMSO control | remaining binding | 95% |
| CCN(CC)CC#CCNc1ccnc2cc(Cl)ccc12 | Salmonella typhimurium | mini-Ames test | TA98 | 62.5 µg/well, without S9 | – | mean revertants | 6 revertants/well |
